# Measured values gathered from unrelated publications.
# Protocols differ between the studies behind these lines. “And” joins repeats or separate records; there may be more than shown. ± gives the spread as reported.
# Genome polyprotein NS2B-NS3 protease: Genome polyprotein, NS2B-NS3 protease (dengue virus type 2, UniProt P29990)
# B1: ABCC3 (Homo sapiens, UniProt O15438); chain MDALCGSGELGSKFWDSNLSVHTENPDLTPCFQNSLLAWVPCIYLWVALPCYLLYLRHHCRGYIILSHLSKLKMVLGVLLWCVSWADLFYSFHGLVHGRAPAPVFFVTPLVVGVTMLLATLLIQYERLQGVQSSGVLIIFWFLCVVCAIVPFRSKILLAKAEGEISDPFRFTTFYIHFALVLSALILACFREKPPFFSAKNVDPNPYPETSAGFLSRLFFWWFTKMAIYGYRHPLEEKDLWSLKEEDRSQMVVQQLLEAWRKQEKQTARHKASAAPGKNASGEDEVLLGARPRPRKPSFLKALLATFGSSFLISACFKLIQDLLSFINPQLLSILIRFISNPMAPSWWGFLVAGLMFLCSMMQSLILQHYYHYIFVTGVKFRTGIMGVIYRKALVITNSVKRASTVGEIVNLMSVDAQRFMDLAPFLNLLWSAPLQIILAIYFLWQNLGPSVLAGVAFMVLLIPLNGAVAVKMRAFQVKQMKLKDSRIKLMSEILNGIKVLKLYAWEPSFLKQVEGIRQGELQLLRTAAYLHTTTTFTWMCSPFLVTLITLWVYVYVDPNNVLDAEKAFVSVSLFNILRLPLNMLPQLISNLTQASVSLKRIQQFLSQEELDPQSVERKTISPGYAITIHSGTFTWAQDLPPTLHSLDIQVPKGALVAVVGPVGCGKSSLVSALLGEMEKLEGKVHMKGSVAYVPQQAWIQNCTLQENVLFGKALNPKRYQQTLEACALLADLEMLPGGDQTEIGEKGINLSGGQRQRVSLARAVYSDADIFLLDDPLSAVDSHVAKHIFDHVIGPEGVLAGKTRVLVTHGISFLPQTDFIIVLADGQVSEMGPYPALLQRNGSFANFLCNYAPDEDQGHLEDSWTALEGAEDKEALLIEDTLSNHTDLTDNDPVTYVVQKQFMRQLSALSSDGEGQGRPVPRRHLGPSEKVQVTEAKADGALTQEEKAAIGTVELSVFWDYAKAVGLCTTLAICLLYVGQSAAAIGANVWLSAWTNDAMADSRQNNTSLRLGVYAALGILQGFLVMLAAMAMAAGGIQAARVLHQALLHNKIRSPQSFFDTTPSGRILNCFSKDIYVVDEVLAPVILMLLNSFFNAISTLVVIMASTPLFTVVILPLAVLYTLVQRFYAATSRQLKRLESVSRSPIYSHFSETVTGASVIRAYNRSRDFEIISDTKVDANQRSCYPYIISNRWLSIGVEFVGNCVVLFAALFAVIGRSSLNPGLVGLSVSYSLQVTFALNWMIRMMSDLESNIVAVERVKEYSKTETEAPWVVEGSRPPEGWPPRGEVEFRNYSVRYRPGLDLVLRDLSLHVHGGEKVGIVGRTGAGKSSMTLCLFRILEAAKGEIRIDGLNVADIGLHDLRSQLTIIPQDPILFSGTLRMNLDPFGSYSEEDIWWALELSHLHTFVSSQPAGLDFQCSEGGENLSVGQRQLVCLARALLRKSRILVLDEATAAIDLETDNLIQATIRTQFDTCTVLTIAHRLNTIMDYTRVLVLDKGVVAEFDSPANLIAARGIFYGMARDAGLA
# B2: SLCO1B1 (Homo sapiens, UniProt Q9Y6L6); chain MDQNQHLNKTAEAQPSENKKTRYCNGLKMFLAALSLSFIAKTLGAIIMKSSIIHIERRFEISSSLVGFIDGSFEIGNLLVIVFVSYFGSKLHRPKLIGIGCFIMGIGGVLTALPHFFMGYYRYSKETNINSSENSTSTLSTCLINQILSLNRASPEIVGKGCLKESGSYMWIYVFMGNMLRGIGETPIVPLGLSYIDDFAKEGHSSLYLGILNAIAMIGPIIGFTLGSLFSKMYVDIGYVDLSTIRITPTDSRWVGAWWLNFLVSGLFSIISSIPFFFLPQTPNKPQKERKASLSLHVLETNDEKDQTANLTNQGKNITKNVTGFFQSFKSILTNPLYVMFVLLTLLQVSSYIGAFTYVFKYVEQQYGQPSSKANILLGVITIPIFASGMFLGGYIIKKFKLNTVGIAKFSCFTAVMSLSFYLLYFFILCENKSVAGLTMTYDGNNPVTSHRDVPLSYCNSDCNCDESQWEPVCGNNGITYISPCLAGCKSSSGNKKPIVFYNCSCLEVTGLQNRNYSAHLGECPRDDACTRKFYFFVAIQVLNLFFSALGGTSHVMLIVKIVQPELKSLALGFHSMVIRALGGILAPIYFGALIDTTCIKWSTNNCGTRGSCRTYNSTSFSRVYLGLSSMLRVSSLVLYIILIYAMKKKYQEKDINASENGSVMDEANLESLNKNKHFVPSAGADSETHC
# UniProt Q92887, sequence (whole entry, looked up): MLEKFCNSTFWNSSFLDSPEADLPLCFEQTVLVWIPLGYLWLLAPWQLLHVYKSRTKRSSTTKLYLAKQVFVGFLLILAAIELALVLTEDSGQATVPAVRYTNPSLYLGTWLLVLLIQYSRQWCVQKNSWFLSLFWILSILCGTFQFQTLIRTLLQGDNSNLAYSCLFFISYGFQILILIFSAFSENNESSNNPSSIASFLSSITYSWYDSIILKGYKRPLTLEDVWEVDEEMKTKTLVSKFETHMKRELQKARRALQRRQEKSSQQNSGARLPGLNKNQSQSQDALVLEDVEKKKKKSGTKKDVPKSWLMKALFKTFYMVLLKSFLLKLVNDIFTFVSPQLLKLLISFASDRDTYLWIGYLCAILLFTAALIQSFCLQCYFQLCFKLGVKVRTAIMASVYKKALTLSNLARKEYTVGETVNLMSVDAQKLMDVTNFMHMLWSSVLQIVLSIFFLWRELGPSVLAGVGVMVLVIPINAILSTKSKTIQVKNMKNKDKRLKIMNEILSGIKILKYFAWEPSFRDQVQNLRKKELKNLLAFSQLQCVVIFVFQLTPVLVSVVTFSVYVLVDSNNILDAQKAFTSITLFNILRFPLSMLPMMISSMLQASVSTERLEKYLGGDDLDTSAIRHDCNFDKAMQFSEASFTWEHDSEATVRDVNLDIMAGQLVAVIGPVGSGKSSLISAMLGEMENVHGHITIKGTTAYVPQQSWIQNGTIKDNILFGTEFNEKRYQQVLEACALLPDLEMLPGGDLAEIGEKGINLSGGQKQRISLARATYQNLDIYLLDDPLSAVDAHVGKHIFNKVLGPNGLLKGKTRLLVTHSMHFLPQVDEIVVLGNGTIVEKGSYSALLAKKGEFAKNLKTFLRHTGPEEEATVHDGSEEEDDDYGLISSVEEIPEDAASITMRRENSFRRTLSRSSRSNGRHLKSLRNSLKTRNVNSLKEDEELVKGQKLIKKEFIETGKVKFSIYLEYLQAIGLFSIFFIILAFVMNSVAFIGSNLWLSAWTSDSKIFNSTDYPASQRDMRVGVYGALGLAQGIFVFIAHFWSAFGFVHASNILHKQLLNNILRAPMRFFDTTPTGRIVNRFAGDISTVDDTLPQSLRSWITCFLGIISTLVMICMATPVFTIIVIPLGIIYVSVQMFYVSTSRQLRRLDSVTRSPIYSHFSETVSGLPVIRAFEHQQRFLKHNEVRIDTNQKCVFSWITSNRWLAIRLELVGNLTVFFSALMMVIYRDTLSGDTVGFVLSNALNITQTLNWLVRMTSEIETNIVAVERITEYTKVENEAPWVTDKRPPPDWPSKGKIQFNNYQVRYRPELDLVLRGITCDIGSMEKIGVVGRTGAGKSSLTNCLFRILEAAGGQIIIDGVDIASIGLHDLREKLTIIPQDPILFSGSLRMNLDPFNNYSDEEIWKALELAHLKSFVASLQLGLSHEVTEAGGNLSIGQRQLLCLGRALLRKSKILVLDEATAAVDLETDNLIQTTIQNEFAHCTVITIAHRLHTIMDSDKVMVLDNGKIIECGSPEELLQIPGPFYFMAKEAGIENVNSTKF
# UniProt P22310, sequence (whole entry, looked up): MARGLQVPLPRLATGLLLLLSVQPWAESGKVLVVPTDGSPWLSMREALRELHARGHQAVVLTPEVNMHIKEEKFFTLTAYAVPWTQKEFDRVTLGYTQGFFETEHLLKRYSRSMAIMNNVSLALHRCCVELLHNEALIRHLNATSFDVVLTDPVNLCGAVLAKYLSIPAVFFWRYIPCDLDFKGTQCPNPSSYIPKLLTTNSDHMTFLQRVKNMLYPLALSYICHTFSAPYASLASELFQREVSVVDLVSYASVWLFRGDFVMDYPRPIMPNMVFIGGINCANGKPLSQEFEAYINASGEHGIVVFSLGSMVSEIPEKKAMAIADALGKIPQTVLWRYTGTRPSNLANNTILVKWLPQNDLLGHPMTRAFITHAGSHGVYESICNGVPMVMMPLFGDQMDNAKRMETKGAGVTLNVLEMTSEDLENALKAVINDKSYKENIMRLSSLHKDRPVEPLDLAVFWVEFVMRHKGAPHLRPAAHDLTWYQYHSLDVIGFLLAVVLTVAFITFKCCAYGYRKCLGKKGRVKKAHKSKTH
Molecule,tested on,assay,system,setting,scale,measurement,value
"ABCC2 (Homo sapiens, UniProt Q92887)",O=C(c1ccc(OCCN2CCCCC2)cc1)c1c(-c2ccc(O)cc2)sc2cc(O[C@@H]3O[C@H](C(=O)O)[C@@H](O)[C@H](O)[C@H]3O)ccc12,steady-state kinetics,Sf9 vesicles,"pH 7, 37 °C, not purified, with: ATP",,Vmax,0.00148 µmol/min/mg
CC(C)C[C@H](NC(=O)[C@@H](CCCCNC(=O)[C@@H](Cc1ccccc1)NC(=O)CCCCCNC(=O)CN1CCN(CC(=O)O)CCN(CC(=O)O)CCN(CC(=O)O)CC1)NC(=O)[C@H](Cc1ccc(O)cc1)NC(=O)[C@H](CO)NC(=O)[C@H](Cc1c[nH]c2ccccc12)NC(=O)[C@H](Cc1c[nH]cn1)NC(=O)[C@@H]1CCC(=O)N1)C(=O)N[C@@H](CCCNC(=N)N)C(=O)N1CCC[C@H]1C(=O)NCC(N)=O [indium-111 labelled],,,"female athymic nude mice, stomach","intravenous, 0.037 MBq, 1 h",,tissue uptake,0.97 ± 0.45 %ID/g
COC1CN([C@H]2CC[C@H]([C@@]3(C)Oc4c(Cl)cc(C(=O)NCc5c(SC)cc(C)[nH]c5=O)c(C)c4O3)CC2)C1,,"RNA-seq, refers to: MAST4","human, whole blood","dose not given, 24 h",relative to: pretreatment baseline,log2 fold change,2.45
Cc1ncsc1-c1ccc(C(C)NC(=O)C2CC(O)CN2C(=O)C(NC(=O)CCCCCCCCCCN2CCCC(Nc3ncc(Cl)c(Nc4ccccc4S(=O)(=O)C(C)C)n3)C2)C(C)(C)C)cc1 (stereo not shown),22Rv1,"RNA-seq, refers to: MRGBP mRNA",,concentration not given,relative to: DMSO,log2 fold change,-1.14
CCCC[C@H](NC(=O)COCCOCCNC(=O)CN1CCN(CC(=O)O)CCN(CC(=O)O)CC1)C(=O)N[C@H]1CC(=O)NCCCC[C@@H](C(N)=O)NC(=O)[C@H](Cc2c[nH]c3ccccc23)NC(=O)[C@H](CCCNC(=N)N)NC(=O)[C@@H](Cc2ccccc2)NC(=O)[C@H](Cc2c[nH]cn2)NC1=O [technetium-99m labelled],,,"C57 mouse, bone","intravenous, 0.037 MBq, 0.5 h",,tissue uptake,0.73 ± 0.55 %ID/g
NCc1cccc(CNC(=O)c2cc(-c3ccccc3)n(-c3ccccc3)n2)c1,Genome polyprotein NS2B-NS3 protease,reporter gene,HeLa,,,EC50,30 µM
"UGT1A4 (Homo sapiens, UniProt P22310)",CCCCN1C(=O)c2cccc3c(N4CCN(C)CC4)ccc(c23)C1=O,steady-state kinetics,,"Michaelis-Menten, UGT1A4",,Vmax,9e-05 µmol/min/mg
B1 (ABCC3),O=C(c1ccc(OCCN2CCCCC2)cc1)c1c(-c2ccc(O[C@@H]3O[C@H](C(=O)O)[C@@H](O)[C@H](O)[C@H]3O)cc2)sc2cc(O[C@@H]3O[C@H](C(=O)O)[C@@H](O)[C@H](O)[C@H]3O)ccc12,steady-state kinetics,Sf9 vesicles,"pH 7, 37 °C, not purified, with: ATP",,Vmax,0.000278 µmol/min/mg
N#C[C@@H]1CC(F)(F)CN1C(=O)CNC(=O)c1ccnc2ccc(OCCCN3CCN(C(=O)CN4CCN(CC(N)=O)CCN(CC(N)=O)CCN(CC(N)=O)CC4)CC3)cc12,,shake flask,n-octanol/PBS,"pH 7.4, 203Pb-labelled",,logD,-2.95 ± 0.1
NC(=O)c1cccc(NC(=O)c2cc(O)n(-c3ccccc3)n2)c1,Genome polyprotein NS2B-NS3 protease,reporter gene,HeLa,,,EC50,> 50 µM
CC(C)C[C@H](NC(=O)[C@H](Cc1ccc(O)cc1)NC(=O)[C@@H](CCCNC(=N)N)NC(=O)[C@@H](CO)NC(=O)[C@H](Cc1ccccc1)NC(=O)[C@H](CC1CCCCC1)NC(=O)[C@H](CC(=O)O)NC(=O)CN1CCN(CC(=O)O)CCN(CC(=O)O)CCN(CC(=O)O)CC1)C(=O)N[C@@H](Cc1c[nH]c2ccccc12)C(=O)N[C@@H](CO)C(=O)O [copper-64 labelled],,,"human, bone","concentration not given, 24 h",,activity concentration,108 Bq/mL and 95.7 Bq/mL and 60.3 Bq/mL and 125 Bq/mL and 107 Bq/mL and 139 Bq/mL
CCCC[C@H](NC(=O)CCCCCCCNC(=O)CN1CCN(CC(=O)O)CCN(CC(=O)O)CC1)C(=O)N[C@H]1CC(=O)NCCCC[C@@H](C(N)=O)NC(=O)[C@H](Cc2c[nH]c3ccccc23)NC(=O)[C@H](CCCNC(=N)N)NC(=O)[C@@H](Cc2ccccc2)NC(=O)[C@H](Cc2c[nH]cn2)NC1=O [technetium-99m labelled],,,"C57 mouse, muscle","intravenous, 0.037 MBq, 0.5 h",,tissue uptake,0.23 ± 0.15 %ID/g
B2 (SLCO1B1),O=C(c1ccc(OCCN2CCCCC2)cc1)c1c(-c2ccc(O[C@@H]3O[C@H](C(=O)O)[C@@H](O)[C@H](O)[C@H]3O)cc2)sc2cc(O)ccc12,steady-state kinetics,HEK293 cells,"pH 7.4, 37 °C",,Vmax,3.58e-05 µmol/min/mg

# A few entries again:
Molecule,tested on,assay,system,setting,scale,measurement,value
"UGT1A4 (Homo sapiens, UniProt P22310)",CCCCN1C(=O)c2cccc3c(N4CCN(C)CC4)ccc(c23)C1=O,steady-state kinetics,,"Michaelis-Menten, UGT1A4",,Vmax,9e-05 µmol/min/mg
B1 (ABCC3),O=C(c1ccc(OCCN2CCCCC2)cc1)c1c(-c2ccc(O[C@@H]3O[C@H](C(=O)O)[C@@H](O)[C@H](O)[C@H]3O)cc2)sc2cc(O[C@@H]3O[C@H](C(=O)O)[C@@H](O)[C@H](O)[C@H]3O)ccc12,steady-state kinetics,Sf9 vesicles,"pH 7, 37 °C, not purified, with: ATP",,Vmax,0.000278 µmol/min/mg
